Measurements collected from several papers.
Numbered parts are unrelated; each lists some results of a single study.

Block 1
Target: RING finger protein unkempt homolog, zinc fingers 1-6, GST-SBP tag (UNK, Homo sapiens, UniProt Q9C0B0, residues 30-357)
Sequence of UniProt Q9C0B0 (30-357, looked up): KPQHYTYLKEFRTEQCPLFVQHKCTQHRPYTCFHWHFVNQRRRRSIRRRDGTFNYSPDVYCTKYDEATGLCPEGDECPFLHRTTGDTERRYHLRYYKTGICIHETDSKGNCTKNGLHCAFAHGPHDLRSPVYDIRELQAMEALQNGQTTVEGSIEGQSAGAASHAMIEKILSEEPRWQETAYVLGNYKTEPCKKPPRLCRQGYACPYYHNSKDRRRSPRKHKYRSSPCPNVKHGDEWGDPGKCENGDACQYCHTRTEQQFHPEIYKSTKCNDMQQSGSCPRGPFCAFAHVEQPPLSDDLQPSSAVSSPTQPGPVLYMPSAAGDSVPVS
Technique: RNA Bind-n-Seq
Molecule type: RNA
Matrix: in vitro
Concentration: not given
Notes: RNA with constant flanks, human and mouse sites, ends assumed
Baseline: input RNA pool
Reading: higher = stronger binding
`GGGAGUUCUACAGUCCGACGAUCUAUGACUGCUUAGCAAUGGCAGUUGAGACUGGUCUCCUUCCACCCAGGAUGGUUUGUGAAUCUUUGAUAAACUCUGACUCUCUUGAAUGGGAAAGAACACAGCUUUGGGCCUUAACAUUUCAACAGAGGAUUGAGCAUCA` gave a bound/input enrichment of 0.216 ratio.
With `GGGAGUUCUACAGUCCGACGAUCCUCUGUCCUGAAUGUGAGAAUCCUGAAACAGAUUUGCAUGUCAAUCCAAAGAAGCAAACAAUAGGUAAUUCUUGUAAAGCCUGUGGCUAUCGAGGCAUGCUUGACACACAUCAUAAACUCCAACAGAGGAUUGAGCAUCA` the bound/input enrichment was 0.211 ratio.
With `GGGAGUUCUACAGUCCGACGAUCCUGAAGUCAGGAAUGUCUCCUGAGCAGAGUAAGACUAAACCUGACUCUAGCAUAUAUCCUUUAGUAGACUCUAAAUCUUUUCUGGUGCAGAGCAGAUUGGAGCCUUCUGAAUUAAAAGAGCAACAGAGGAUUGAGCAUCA` the bound/input enrichment was 0.215 ratio.
For `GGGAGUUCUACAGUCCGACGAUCGUCUGUGGCCGCAGUGACACCAUCGACACCGUCUCUGUGCCGUAUGUCUUCCGGUACUUUGUAGCUGAGCUGGCAGCCAUGAACAUCAAAGUGAAACUGGAUGUCAUCUGACUUGAUCCCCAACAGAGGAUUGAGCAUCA`, the bound/input enrichment was 0.129 ratio.
For `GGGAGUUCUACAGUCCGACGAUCGAUGAUAAUCACACAAAUGUGGCACUUUUAUGUGACCAGAGUUGUACUUCUUCUCCUGAUUAGUAUUCUCCCUGGAACCACUAGCCAAGGGGAAUCAAGACGACAAGAACCUGGGGACUUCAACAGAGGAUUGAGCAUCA`, the bound/input enrichment was 0.188 ratio.
`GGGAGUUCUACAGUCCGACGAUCACUCCUCCCCCUACUCCACCGGACCUCAACCAGGACUUCAGUGGAUUUCAGCUUCUAGUGGAUGUUGCACUCAAACGGGCUGCAGAGAUGGAGCUUCAGGCAAAACUUACAGCUUAACCCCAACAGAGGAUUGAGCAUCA` gave a bound/input enrichment of 0.224 ratio.
With `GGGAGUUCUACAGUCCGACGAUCUUUCUUUUUCUUUUUCUUUUUAAAAUGUUAAUGCCCGUUGUCUUUCCUGGGCUGUUUGCUAGCGGAAGGAUGCCAGGGAAGCCAGCAGGAGCUAGGAGAGAGUCCGUGGAUCUCGAAAGACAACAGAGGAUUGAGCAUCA` the bound/input enrichment was 0.602 ratio.
`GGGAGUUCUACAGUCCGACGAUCGCUGAUCCUGAUGAGAUGAGAAUGCAGGCACUAUUAAUCAGAGAACGUAUUCUUGGUCCUUCUCAUCCUGAUACCUCUUACUAUAUUAGAUAUAGAGGCGCUGUCUAUGCAGACUCUGGACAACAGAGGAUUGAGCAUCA` gave a bound/input enrichment of 0.18 ratio.
With `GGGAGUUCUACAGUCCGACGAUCUUGGAAGGGCUUCACACCAAGCUGGGGAACAUCAAGACCUUAAACCUGGCAGGCAACCUCCUAGAGAGUCUGAGUGGCCUGCACAAGCUCUACUCACUGGUCAACCUGGAUCUCCGGGACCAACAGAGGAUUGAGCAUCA` the bound/input enrichment was 0.141 ratio.
`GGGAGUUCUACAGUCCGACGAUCCAUGCCCACCCACUCAACCCACUGUGGGUCACAUUGCUCACAUCUUUUUAAUCUUUGUUCCUUUCCUGCCUCCAUUUCAAGAGCUGGGUUUGUAAGCCCUCUUAUGCCUUCAAUGCACUUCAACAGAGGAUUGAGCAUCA` gave a bound/input enrichment of 0.483 ratio.
With `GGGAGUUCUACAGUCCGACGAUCGAGGGAGAUGGUGGCCCUAACACAGGGGGAAUGGGAGCCUAUUGUCCAGCCCCUCAGGUUUCUAAUGAUCUAUUACUAAAAAUUAAAGAUACUGUUCUUCAGAGGACAGUGGAUGGCAUGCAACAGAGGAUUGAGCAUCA` the bound/input enrichment was 0.77 ratio.

Block 2
Target: Sal-like protein 4, full length isoform A (SALL4, Homo sapiens, UniProt Q9UJQ4, residues 1-1053)
Sequence of UniProt Q9UJQ4 (whole entry, looked up): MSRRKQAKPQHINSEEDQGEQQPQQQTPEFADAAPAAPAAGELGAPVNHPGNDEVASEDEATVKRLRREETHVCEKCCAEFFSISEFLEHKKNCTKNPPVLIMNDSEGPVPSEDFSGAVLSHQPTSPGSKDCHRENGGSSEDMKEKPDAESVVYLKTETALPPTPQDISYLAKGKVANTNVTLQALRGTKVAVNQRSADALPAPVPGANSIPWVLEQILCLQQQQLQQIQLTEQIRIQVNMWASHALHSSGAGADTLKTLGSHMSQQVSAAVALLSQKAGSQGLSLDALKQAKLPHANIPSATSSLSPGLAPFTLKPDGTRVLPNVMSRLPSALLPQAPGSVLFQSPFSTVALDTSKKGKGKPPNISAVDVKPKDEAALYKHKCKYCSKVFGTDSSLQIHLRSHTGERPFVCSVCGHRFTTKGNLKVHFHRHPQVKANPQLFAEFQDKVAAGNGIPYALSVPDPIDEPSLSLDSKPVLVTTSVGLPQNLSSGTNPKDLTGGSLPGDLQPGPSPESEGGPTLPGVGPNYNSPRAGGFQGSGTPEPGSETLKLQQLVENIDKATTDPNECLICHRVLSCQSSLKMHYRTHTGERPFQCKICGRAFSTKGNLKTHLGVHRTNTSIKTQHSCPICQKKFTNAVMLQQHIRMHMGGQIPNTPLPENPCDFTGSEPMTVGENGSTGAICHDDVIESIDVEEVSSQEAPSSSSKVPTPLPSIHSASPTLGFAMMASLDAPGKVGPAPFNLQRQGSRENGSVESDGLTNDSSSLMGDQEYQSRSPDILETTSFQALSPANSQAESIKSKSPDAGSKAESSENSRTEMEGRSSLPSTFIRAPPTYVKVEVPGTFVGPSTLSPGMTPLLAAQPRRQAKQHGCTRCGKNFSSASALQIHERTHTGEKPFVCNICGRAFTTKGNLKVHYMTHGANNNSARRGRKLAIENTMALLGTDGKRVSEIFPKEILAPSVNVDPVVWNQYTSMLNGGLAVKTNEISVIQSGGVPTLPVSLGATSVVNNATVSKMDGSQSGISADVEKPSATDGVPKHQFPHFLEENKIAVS
Technique: universal PBM
Molecule type: double-stranded DNA, one strand shown
Matrix: in vitro
Concentration: 600 nM
Notes: 8-mer, flanks averaged, mean of replicates
Reading: higher = stronger binding
`ACTCTCAT` has an E-score of 0.0909.
The E-score of `AATTCTTA` is reported as 0.21.
For `CTGATAGC`, the E-score was 0.00313.
The E-score of `GCAGCCGA` is reported as -0.219.
With `CGCGGAGA` the E-score was -0.197.
`AATGGCAG` has an E-score of 0.0396.
For `ACATCTAT`, the E-score was 0.281.
For `CCACGGCC`, the E-score was -0.365.
The E-score of `ACAAGAAC` is reported as 0.201.
The E-score of `GTAGCAAC` is reported as 0.0448.
For `AAGAAAGT`, the E-score was 0.126.
With `CCTGCTCA` the E-score was -0.137.
With `AGCGTTGA` the E-score was -0.0727.
For `AGGTCGGG`, the E-score was -0.258.
`ATAACTCC` has an E-score of 0.238.
`GGAATGCA` gave an E-score of 0.0516.
`CCTGATGA` gave an E-score of -0.0673.
For `AATGTCCT`, the E-score was 0.14.
The E-score of `ATAGCGCA` is reported as 0.167.
The E-score of `ACTCCTTG` is reported as -0.141.

Block 3
Target: Interferon regulatory factor 5, full length, phosphomimetic (IRF5, Homo sapiens, UniProt Q13568-2, residues 1-514, S451D/S453D/S456D/S462D)
Technique: protein-binding microarray
Molecule type: double-stranded DNA, one strand shown
Matrix: in vitro
Concentration: 940 nM top
Notes: 60-bp whole probe
Added: salmon DNA 0.4 mg/ml
Baseline: random background probes
Reading: higher = stronger binding
All sequences stand within: GCCTAGCAC … GTCTTGATTCGCTTGACGCTGCTG
`TTCTGATCCATTTTGGTTTTGTGCTAG`: “fitted relative affinity” 0.418 z-score.
For `TTAGTACTGGGGTTTCGATTAGTGCTA`, “fitted relative affinity” read 5.39 z-score.
Under “fitted relative affinity”, `GACGGTTTTGGTATCGGGACGTGCTAG` is recorded as 5.28 z-score.
`TCATTTGTCACTCTCAGACTGTGCTAG`: “fitted relative affinity” 0.956 z-score.
Under “fitted relative affinity”, `GACGATCTCAGTATAGAGACGTGCTAG` is recorded as 0.395 z-score.
Under “fitted relative affinity”, `TCACTTTTCTGTTGTCTGACTGTGCTA` is recorded as 1.78 z-score.
Under “fitted relative affinity”, `TAACTTTTTTTTTTCCCTGAGTGCTAG` is recorded as 1.17 z-score.
Under “fitted relative affinity”, `GTCGGTTTCGGTTCCGGGACGTGCTAG` is recorded as 16.5 z-score.
`TTAGGTTTCCTTTTCATTTAGTGCTAG` — result for “fitted relative affinity”: 2.35 z-score.
For `TCAGTATTATTTATTGTACTGTGCTAG`, “fitted relative affinity” read -0.00495 z-score.
For `TTAGGTTTCGGGACTGGCTTAGTGCTA`, “fitted relative affinity” read 7.36 z-score.
For `TTAGTTCTCGGACTGGGTTAGTGCTAG`, “fitted relative affinity” read 1.01 z-score.
`TAGTTTTACTTTCTATGTCTGTGCTAG`: “fitted relative affinity” 3.29 z-score.
Under “fitted relative affinity”, `TAGTTTTCAATTTTTGCATCGTGCTAG` is recorded as 1.08 z-score.
For `TTAGATTTCGGTCTCGATTAGTGCTAG`, “fitted relative affinity” read 4.63 z-score.
For `TACTTTCTATCTCTGTTTTTGTGCTAG`, “fitted relative affinity” read 4.8 z-score.
For `GACGATTTCGGGTTTCGAGAGGTGCTA`, “fitted relative affinity” read 2.39 z-score.
`TTAGAACTGCTTTTCCTTTAGTGCTAG`: “fitted relative affinity” 0.1 z-score.
For `TTCGAACTGGGGTATCGATTAGTGCTA`, “fitted relative affinity” read 3.14 z-score.
For `GACGGTCGCCTACTGCTGACGTGCTAG`, “fitted relative affinity” read -0.69 z-score.
`GACGAACTGAGACTGCAGACGTGCTAG`: “fitted relative affinity” -0.327 z-score.
Under “fitted relative affinity”, `TTAGGACTGGGGTTTCGGTTGGTGCTA` is recorded as 5.58 z-score.
`GACGGTTTCGACTATCGGGTCGTGCTA`: “fitted relative affinity” 9.37 z-score.

Block 4
Target: Fragile X messenger ribonucleoprotein 1, C-terminal low-complexity region (Fmr1, Mus musculus, UniProt P35922)
Technique: RNA Bind-n-Seq
Molecule type: RNA
Matrix: in vitro
Concentration: 200 nM
Notes: whole 134-nt RNA, ends assumed
Added: 150 mM LiCl
Baseline: input library
Reading: higher = stronger binding
All molecules: 7-deaza-guanosine replaces G
`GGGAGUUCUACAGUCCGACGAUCCUCAAGUCCUGUGCUACACAUCGUAUGUACCGAAUCGGGUUGGGUUGGUUGGGAAAGUAUUAUGUUACGCCGUUCGGAUCUGCACUUCCAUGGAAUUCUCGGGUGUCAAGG` gave a log2 enrichment of 0.374.
For `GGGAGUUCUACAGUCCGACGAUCCCACCAUGACCCCUGACGGUCUGGCUGUGACCCCAACGCCGGUGCCCGUGGUCGGGAGCCAGAUGACCAGACAAGCCCGGCGCCUCUACGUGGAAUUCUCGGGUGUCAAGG`, the log2 enrichment was 0.669.
`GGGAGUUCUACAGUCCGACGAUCGUCCUGUGCUACACAUCGUAUGUACCGAAUCGGGAAAAAAGGAAAAAAGGAAAAAAGGGAAAGUAUUAUGUUACGCCGUUCGGAUCUGCAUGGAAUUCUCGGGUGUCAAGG` has a log2 enrichment of -0.0238.
`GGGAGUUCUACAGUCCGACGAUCCCUCAAGUCCUGUGCUACACAUCGUAUGUACCGAAUCGGAGGAGGGGAGGGGAAAGUAUUAUGUUACGCCGUUCGGAUCUGCACUUCCAGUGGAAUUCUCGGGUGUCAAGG` gave a log2 enrichment of -0.174.
The log2 enrichment of `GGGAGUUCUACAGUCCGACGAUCAAGUCCUGUGCUACACAUCGUAUGUACCGAAUCGGGAAAGGGUUUGGGUUUUUGGGAAAGUAUUAUGUUACGCCGUUCGGAUCUGCACUUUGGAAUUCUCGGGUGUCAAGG` is reported as -1.95.
`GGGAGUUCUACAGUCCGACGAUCGUCCUGUGCUACACAUCGUAUGUACCGAAUCGGGGUUUGGGGAAAAAAAGGGGUGGGGAAAGUAUUAUGUUACGCCGUUCGGAUCUGCACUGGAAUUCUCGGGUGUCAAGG` has a log2 enrichment of -1.52.
The log2 enrichment of `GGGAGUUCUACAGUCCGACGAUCUAACUUUAGAGGAGGAUCUGAUGGAUAUGGCAGUGGAUGUGGAUUUGGGGAUGGCUAUAAUGGGUAUGGAGGAGGACCUGGAGGUGGCAAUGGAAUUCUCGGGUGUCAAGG` is reported as 1.07.
The log2 enrichment of `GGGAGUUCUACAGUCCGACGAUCACCAUGCAGGUGGGCAUCUUUGGGAAGUGGGGCAAGGGGGCGAUAGGGAGGGGGGUAACACUUUGGGAACAGGUGGUCCCAGGUCGUUUCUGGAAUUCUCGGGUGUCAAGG` is reported as 0.517.

For quick reference, copied from above (block 3):
Under “fitted relative affinity”, `TAGTTTTCAATTTTTGCATCGTGCTAG` is recorded as 1.08 z-score.
For `TTAGATTTCGGTCTCGATTAGTGCTAG`, “fitted relative affinity” read 4.63 z-score.
For `TACTTTCTATCTCTGTTTTTGTGCTAG`, “fitted relative affinity” read 4.8 z-score.
For `GACGATTTCGGGTTTCGAGAGGTGCTA`, “fitted relative affinity” read 2.39 z-score.
`TTAGAACTGCTTTTCCTTTAGTGCTAG`: “fitted relative affinity” 0.1 z-score.
For `TTCGAACTGGGGTATCGATTAGTGCTA`, “fitted relative affinity” read 3.14 z-score.
For `GACGGTCGCCTACTGCTGACGTGCTAG`, “fitted relative affinity” read -0.69 z-score.
